# Experimental data from different studies.
# Lines come from different studies, so protocols differ.
Compound,cell line,test,conditions,IC50
Cc1cc(Nc2nc(C[C@@]3(C(=O)O)CCN(Cc4cccc(Cl)c4F)[C@H](C)C3)cc(C)c2F)[nH]n1,sensitive lung cancer lines,cell proliferation,mean,68 nM
C[C@H]1COc2c(N3CCN(C)CC3)c(F)cc3c(=O)c(C(=O)N[C@@H](CCCNC(=N)N)C(=O)N[C@@H](Cc4ccc(-c5ccccc5)cc4)C(=O)N[C@@H](CCCNC(=N)N)C(=O)N[C@@H](Cc4ccc(-c5ccccc5)cc4)C(=O)N[C@@H](CCCNC(=N)N)C(N)=O)cn1c23,MDCK,"cell growth or viability, MTT",,88300 nM
CC(C)c1cccc(C(C)C)c1-n1c[n+](-c2c(C(C)C)cccc2C(C)C)c2c1-c1cccc3cccc-2c13.[Cl][Pd-]([Cl])[CH2]C=Cc1ccccc1,PSN1,"cell growth or viability, MTT",72 h,7200 nM
CC[C@H](C)[C@H](NC(=O)[C@H](CCCCN)NC(=O)[C@@H](NC(=O)[C@H](CCC(N)=O)NC(=O)[C@H](CCCNC(=N)N)NC(=O)[C@H](CC(C)C)NC(=O)CNC(=O)[C@H](Cc1ccccc1)NC(=O)CNC(=O)[C@H](Cc1ccc(O)cc1)NC(=O)CNC(=O)[C@H](CCCCN)NC(=O)[C@@H](NC(=O)[C@H](Cc1ccccc1)NC(=O)[C@@H](NC(=O)[C@H](CC(=O)O)NC(=O)[C@H](CCCNC(=N)N)NC(=O)[C@H](C)NC(=O)[C@H](CO)NC(=O)[C@H](CCCCN)NC(=O)CNC(=O)[C@H](CC(C)C)NC(=O)[C@H](CC(=O)O)NC(=O)[C@H](C)NC(=O)[C@H](Cc1ccc(O)cc1)NC(=O)[C@@H](NC(=O)[C@@H]1CCCN1C(=O)[C@@H]1CCCN1C(=O)[C@@H](NC(=O)[C@H](C)NC(=O)[C@@H](N)CCSC)C(C)C)[C@@H](C)O)C(C)C)[C@@H](C)O)[C@@H](C)CC)C(=O)N[C@@H](Cc1c[nH]c2ccccc12)C(=O)N[C@@H](Cc1ccccc1)C(=O)N[C@@H](CCC(N)=O)C(=O)N[C@@H](CC(N)=O)C(=O)N[C@@H](CCCNC(=N)N)C(=O)N[C@@H](CCCNC(=N)N)C(=O)N[C@@H](CCSC)C(=O)N[C@@H](CCCCN)C(=O)N[C@@H](Cc1c[nH]c2ccccc12)C(=O)N[C@@H](CCCCN)C(=O)N[C@@H](CCCCN)C(=O)O,CLL patient PBMCs,"cell death, PI staining flow cytometry","90 min, room temperature, serum-free medium",3200 nM
COC(=O)C1CN1S(=O)(=O)c1ccccc1 (stereo not shown),Caco-2,"cell growth or viability, SRB",72 h,3.37 µg/mL
CCC(C)C1OC(=O)C(NC(=O)c2cccc(NC=O)c2O)C(C)OC(=O)C(C(C)CC)OC(=O)C(C)(C)C(O)C(Cc2ccccc2)OC1=O (stereo not shown),PC-9,"cell growth or viability, CCK-8",72 h,5.1 nM
[CH3][Ti+2][O]C(=O)c1ccc([S][Au][PH](c2ccccc2)(c2ccccc2)c2ccccc2)cc1.c1cc[cH-]c1.c1cc[cH-]c1,CAKI-1,"cell growth or viability, XTT",72 h,120 nM
Cc1cc(C)c(-n2ccn(-c3c(C)cc(C)cc3C)c2=[Se])c(C)c1.[Cl][Ag],A-375,"cell growth or viability, MTT",72 h,700 nM
CNC(=O)c1cc(Oc2ccc(NC(=O)c3cc(-c4cccc(COC(=O)CCC(=O)OC5OC6OC7(C)CCC8C(C)CCC(C5C)C68OO7)c4)ccn3)cc2)ccn1 (stereo not shown),Hep3B,"cell growth or viability, MTT",72 h,8730 nM
O=C(Cc1ccc2ccccc2c1)N[C@H](Cc1ccccc1)C(=O)N[C@H](Cc1ccccc1)C(=O)N[C@H](Cc1ccc(O)cc1)C(=O)N[C@H](Cc1ccc(O)cc1)C(=O)O,SAOS-2,"cell growth or viability, MTT",,> 500 µg/mL

# For quick reference, copied from above:
Compound,cell line,test,conditions,IC50
CC(C)c1cccc(C(C)C)c1-n1c[n+](-c2c(C(C)C)cccc2C(C)C)c2c1-c1cccc3cccc-2c13.[Cl][Pd-]([Cl])[CH2]C=Cc1ccccc1,PSN1,"cell growth or viability, MTT",72 h,7200 nM
